# Assay results collected from several papers.
# Each numbered part is a random draw from the data of one study; scales do not carry over between parts.

# Set 1
# Target: Histone acetyltransferase KAT6A, both winged helices, GST fusion (KAT6A, Homo sapiens, UniProt Q92794, residues 1-181)
# Technique: protein binding microarray
# Molecule type: double-stranded DNA, one strand shown
# Matrix: in vitro
# Concentration: not given
# Setting: 8-mer, flanks averaged, mean of 2 arrays, mostly near background
# Relative to: not given
# Direction: higher = stronger binding
# Construct (chain): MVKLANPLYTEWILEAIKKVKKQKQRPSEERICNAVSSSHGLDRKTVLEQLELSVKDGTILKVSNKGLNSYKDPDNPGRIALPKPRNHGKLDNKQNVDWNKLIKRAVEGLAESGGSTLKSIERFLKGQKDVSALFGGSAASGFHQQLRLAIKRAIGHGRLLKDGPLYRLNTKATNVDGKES
Oligonucleotide,E-score
GATTATAC,-0.0799
ATAGGGGA,-0.276
CCGACGGA,0.354
GACCTCTA,0.0182
TATACGCA,0.0776
ACAGGTAT,-0.112
CTGGCTGA,-0.229
ACCAGATA,-0.0982
CGATAACA,0.00842
AACGTATC,-0.105
GGGGCTAA,-0.237
CTCAACAA,-0.166
CCTGGCTA,-0.154
GCAACACC,0.0857
ATAGCGGA,0.213
ACTGCCGG,0.205
GGGGTAGA,-0.0773
GCAGCACC,-0.0825
GCATCAAC,0.0173
GGTCAGAC,0.00112
AATCCGAC,0.117
CAACAGGA,-0.121
CGGTCTCC,0.107

# Set 2
# Target: PABPC1L2, full length, GST fusion (mouse, UniProt A0ABA7IW68)
# Technique: RNAcompete
# Molecule type: RNA
# Matrix: in vitro
# Concentration: 20 nM
# Setting: 7-mer, probes averaged, single round
# Relative to: mean of 7-mers
# Direction: higher = stronger binding
# Construct (chain): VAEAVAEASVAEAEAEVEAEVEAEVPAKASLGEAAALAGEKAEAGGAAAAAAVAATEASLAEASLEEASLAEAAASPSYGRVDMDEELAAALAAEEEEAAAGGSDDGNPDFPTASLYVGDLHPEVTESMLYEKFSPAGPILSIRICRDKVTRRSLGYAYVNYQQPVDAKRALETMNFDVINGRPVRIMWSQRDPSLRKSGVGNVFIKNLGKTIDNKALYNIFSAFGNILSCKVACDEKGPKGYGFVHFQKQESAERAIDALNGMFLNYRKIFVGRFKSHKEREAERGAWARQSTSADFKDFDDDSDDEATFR
Oligonucleotide,7-mer Z-score
CGGACCU,-0.0772
UUCAGAG,-0.159
UGCAAGC,-0.255
GAUGUUC,-0.351
GAUCAGA,-0.00833
AACUCCC,-0.182
GGCGUGA,0.0859
ACGAUAG,0.0388
CCGAACA,-0.104
ACAUAGU,-0.0899
AAACAAG,3.78
CGAUGGA,0.166
CAUCCAU,-0.282
AUCUGUC,-0.331
CAUAGUU,-0.266
ACAUCGC,-0.191
GGUACAC,-0.0518
CCGAAUG,-0.124
AGCCUGA,-0.168
CUCUUAA,0.0642
CAUGGAC,0.00617
UACCUGG,-0.208
AUAGAAU,0.149

# Set 3
# Target: Sal-like protein 4, full length isoform B (SALL4, Homo sapiens, UniProt Q9UJQ4-2, residues 1-616)
# Technique: universal PBM
# Molecule type: double-stranded DNA, one strand shown
# Matrix: in vitro
# Concentration: not given
# Setting: 8-mer, flanks averaged, mean of replicates
# Direction: higher = stronger binding
# Target sequence (chain): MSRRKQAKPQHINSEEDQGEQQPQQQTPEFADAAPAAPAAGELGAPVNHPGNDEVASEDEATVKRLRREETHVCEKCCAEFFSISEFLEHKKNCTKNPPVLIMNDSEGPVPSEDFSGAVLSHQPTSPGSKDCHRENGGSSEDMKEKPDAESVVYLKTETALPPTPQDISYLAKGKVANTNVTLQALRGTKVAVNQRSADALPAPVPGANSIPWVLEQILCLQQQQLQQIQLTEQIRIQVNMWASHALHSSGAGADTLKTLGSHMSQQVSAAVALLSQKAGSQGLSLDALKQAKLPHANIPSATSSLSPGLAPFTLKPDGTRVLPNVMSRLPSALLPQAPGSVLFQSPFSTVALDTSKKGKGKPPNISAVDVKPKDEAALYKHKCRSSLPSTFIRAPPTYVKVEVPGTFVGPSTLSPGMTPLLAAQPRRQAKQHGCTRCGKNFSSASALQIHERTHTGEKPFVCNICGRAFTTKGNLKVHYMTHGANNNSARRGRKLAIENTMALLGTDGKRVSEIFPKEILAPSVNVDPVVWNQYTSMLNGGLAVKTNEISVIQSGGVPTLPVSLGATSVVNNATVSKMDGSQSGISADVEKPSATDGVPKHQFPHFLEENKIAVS
Oligonucleotide,E-score
GACCAGCC,-0.269
AACATACT,0.214
CAGGGTGA,-0.111
AACGTCTG,-0.149
AGTGTCGG,-0.261
GATTACAA,0.213
ACACGTCC,-0.0517
AACTCCTG,-0.0815
GTTGAGGA,-0.0741
TCAGTGGA,-0.177
GAACGAGC,0.0381
CGATTGGC,-0.0893
AACTCCCC,0.00989
CAGCGGCG,-0.161
ATCATGCA,0.172
AGCCGACA,-0.23
CCAGGGTA,-0.229
CCGAGATA,-0.0265
CGCAAGAA,-0.165
ACGAAGGA,0.0389
CTCACTGC,-0.115
CTTATCGC,-0.123
ATCCGATC,-0.0343
ATCGTCCC,0.0483
GCCCAAGC,-0.199

# Set 4
# Target: RING finger protein unkempt homolog, zinc fingers 1-6, GST-SBP tag (UNK, Homo sapiens, UniProt Q9C0B0, residues 30-357)
# Chain of UniProt Q9C0B0 (30-357, looked up): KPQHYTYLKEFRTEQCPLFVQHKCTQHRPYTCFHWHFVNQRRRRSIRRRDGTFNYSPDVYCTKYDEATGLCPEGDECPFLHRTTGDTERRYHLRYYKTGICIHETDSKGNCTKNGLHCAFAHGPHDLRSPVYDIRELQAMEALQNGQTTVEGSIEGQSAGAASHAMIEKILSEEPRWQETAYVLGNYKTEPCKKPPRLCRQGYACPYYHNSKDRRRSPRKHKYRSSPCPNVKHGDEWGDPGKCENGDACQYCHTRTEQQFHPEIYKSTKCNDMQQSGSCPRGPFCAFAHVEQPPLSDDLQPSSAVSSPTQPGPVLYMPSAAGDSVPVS
# Technique: RNA Bind-n-Seq
# Molecule type: RNA
# Matrix: in vitro
# Concentration: not given
# Setting: RNA with constant flanks, human-mouse chimeric sites, ends assumed
# Relative to: input RNA pool
# Direction: higher = stronger binding
Oligonucleotide,bound/input enrichment [ratio]
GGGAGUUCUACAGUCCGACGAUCGUAGCUGGCCAUUAGGAAAUGCUGGUAAUUUCAGUCACUUGCUGAUGACUUCUGAUGACCUAGCAAAUGUUGGCAUUGUUGACUGCUGAGAAGAUACUUCUGAGGACCCACGUCUAAGGUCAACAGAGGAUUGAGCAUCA,0.15
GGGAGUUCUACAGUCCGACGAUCUCCUGGUCGUGUCCCAGUGCAGGACGAGAACAUGGACAACUCAAAGCGGACCCUCUAUUGUAGUUCUUGAUUCUCGAAAUGUGCUAUUAUUGUUUGUCUUUUUUUUUUUUUUUUUAAAGACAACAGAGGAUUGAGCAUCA,0.947
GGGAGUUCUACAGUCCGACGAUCCUCGGCACUGGUACCCUUUACAUCGCGGAGAGCCGCCUGUCCUGGUUAGAUGGUUCGGGAUUAGGAUUCUCACUGGAAUACCCCACCAUUAGUUUACAUGCGGUGUCCAGGGAUCCAAACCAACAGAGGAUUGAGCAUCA,0.559
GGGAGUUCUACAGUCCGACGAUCAGUACUGACUCAGGCGGAUUUUGCAACACCAAGCUCACAGCAGCAGCAUCUUAGUCACAGUAGGGUAGUUUUGGGGCUCUGUGGCCAUGGUUUUACUCACAUGCAGGUUUGGAAAAUGUACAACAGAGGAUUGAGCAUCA,1.66
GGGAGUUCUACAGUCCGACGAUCAGAAAGCAAAACUUGGAACGAUUUAAGAAAGGAGAUGUAAGAUUCUUGAUUUGCACAGAUGUAGCUGCUAGAGGGAUUGAUAUCCAUGGCGUUCCUUAUGUGAUCAACGUCACCCUGCCUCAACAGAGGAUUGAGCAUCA,0.2
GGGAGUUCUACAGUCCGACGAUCGUAUUUGUGCGCUCCCCACUCGUGUUUUUAAGUGUAUUUUUAUAAGAUACAUGUAUUUACAAUUGAGUUUUUGAUUAAUAAUGCUGAAAUGCUACUGGAGAUUAUGAAAAAUGUUUCAAUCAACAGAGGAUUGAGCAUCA,0.254
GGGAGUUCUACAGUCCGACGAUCGUAUACGGUUAUCGAGGAAAGGACUGUAGAGCGAAUGUAUACCUGCUUCCGACCGGGGAGAUAGUUUAUUUUAUCGCCUCAGUGGUAGUCCUGUUUAAUUAUGAGGAGAGGACUCAGCGACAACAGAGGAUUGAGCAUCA,0.368
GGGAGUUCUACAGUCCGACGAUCACCAUUUUCGCGGUUCAGGCUUUGUGUGUAGUUCACUUACGGUAUUAAAUUAUUAUUCUGCUUAGCUUAUAAUAAGGAUUACAAUUGUUAAAGAGGUUACUGAAUGUUGUUAUUGUUCUUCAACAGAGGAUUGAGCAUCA,1.08
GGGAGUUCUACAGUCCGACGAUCGCGGCAGAAUCAUGGUGGACAUGAUGGAGCUCCCCAAAGCGCGCGUCAACGCCAGCAUGUUACCACAGUAUAUCGACCGGCCCGUGUGCUUCGUGGGGAAGCUGGAAAAGAUUCAUCCCACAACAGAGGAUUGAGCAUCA,0.141
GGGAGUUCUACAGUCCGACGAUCUACUGCUUUCAACUUAAUAAAUCACUGAGGCAUCUCUACUGUUCUGUGAGCAUCAGGACUGUAGCGCUGUGUCACCACAUGAGAGUUCAGAAGCAGCCUUUCUGUGGAGGGUGGGAAUGACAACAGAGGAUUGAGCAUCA,0.131
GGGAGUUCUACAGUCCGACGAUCUCGGAUGCUGUGCUGGGUCACUUUUCAUAUCCAGAUCCUUCACAGUGGACAGAUGAAGAACUGGGAAUCCCUCCUGAUGAUGAAGACUGAAGGUGUAAACUCUCUGGACGAGUAGGAGCACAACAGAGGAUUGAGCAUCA,0.343

# Set 5
# Target: Interferon regulatory factor 3, full length, phosphomimetic (IRF3, Homo sapiens, UniProt Q14653, residues 1-427, S386D/S396D/S398D/S402D/T404D/S405D)
# Technique: protein-binding microarray
# Molecule type: double-stranded DNA, one strand shown
# Matrix: in vitro
# Concentration: 2540 nM top
# Setting: 60-bp whole probe
# Together with: salmon DNA 0.4 mg/ml
# Relative to: random background probes
# Direction: higher = stronger binding
# All sequences stand within: GCCTAGCAC … GTCTTGATTCGCTTGACGCTGCTG
# Residues (chain): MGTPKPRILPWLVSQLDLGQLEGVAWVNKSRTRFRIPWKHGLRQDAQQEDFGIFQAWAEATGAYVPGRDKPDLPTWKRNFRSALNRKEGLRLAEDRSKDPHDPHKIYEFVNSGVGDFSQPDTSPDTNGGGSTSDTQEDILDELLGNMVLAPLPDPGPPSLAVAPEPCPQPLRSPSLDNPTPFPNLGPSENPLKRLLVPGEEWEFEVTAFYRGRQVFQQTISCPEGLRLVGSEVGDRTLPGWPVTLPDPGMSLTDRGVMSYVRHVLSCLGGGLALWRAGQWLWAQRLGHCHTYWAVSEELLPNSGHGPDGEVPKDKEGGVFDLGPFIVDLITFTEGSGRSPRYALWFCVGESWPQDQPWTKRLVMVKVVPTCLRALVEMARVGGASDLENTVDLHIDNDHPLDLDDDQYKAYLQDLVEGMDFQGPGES
Oligonucleotide,fitted relative affinity [z-score]
TCAGGACTGGGTTTCGGTTAGTGCTAG,3.01
TTAGATCTCAGACTGGATTTGTGCTAG,-0.0483
TTAGGTTTCGGTTCCCGTTAGTGCTAG,10
TTAGATTTCGGCTATCGATTAGTGCTA,0.621
TAGCTTCTCAATTAAAAAAAGTGCTAG,0.211
TTAGGTTTCGGGTTGCGGTTAGTGCTA,4.32
TCAGCTCTGATGTTGGGACTGTGCTAG,-0.607
TTAGCACTGGGTATCGGTTAGTGCTAG,0.441
AAGGCTTTGCTTCCTGCAGAGTGCTAG,-0.647
GACGGTATCGGTCTCTGGACGTGCTAG,4.34
GACGGTATCCTAGTGCTGACGTGCTAG,2.65
TTAGATATCAGGTATCGATTAGTGCTA,0.851
TTAGGTATCGCTCTCGGTTAGTGCTAG,2.87
TTAGATATCGTGTATCGATTAGTGCTA,0.263
ACCTGAGTCCCTATCTCCTCGTGCTAG,0.456
GTAAGTTTCACTTTCCAAAGGTGCTAG,9.17
GGCGAACTGAGACTGGAGACGTGCTAG,-0.425
GACGATTTCAGTCGCGAGACGTGCTAG,0.699
TTTTTTTTTTTTTTTTTGGAGTGCTAG,1.56
TTAGGTTTCGGTCTCGCTTAGTGCTAG,8.76
